Assay results of several laboratories.
Numbered parts are unrelated; each lists some results of a single study.

Study 1 — technique: protein-binding microarray; form: double-stranded DNA, one strand shown; medium: in vitro; concentration: 0.8 µM; notes: whole 60-bp probe, no competitor; direction: higher = stronger binding; measurement: fluorescence intensity; constant ends, left off below: … GTCTTGATTCGCTTGACGCTGCTG
Target: Centromere-binding protein 1, full length, N-terminal tag (CBF1, Saccharomyces cerevisiae, UniProt P17106, residues 1-351)
UniProt P17106, sequence (whole entry, looked up): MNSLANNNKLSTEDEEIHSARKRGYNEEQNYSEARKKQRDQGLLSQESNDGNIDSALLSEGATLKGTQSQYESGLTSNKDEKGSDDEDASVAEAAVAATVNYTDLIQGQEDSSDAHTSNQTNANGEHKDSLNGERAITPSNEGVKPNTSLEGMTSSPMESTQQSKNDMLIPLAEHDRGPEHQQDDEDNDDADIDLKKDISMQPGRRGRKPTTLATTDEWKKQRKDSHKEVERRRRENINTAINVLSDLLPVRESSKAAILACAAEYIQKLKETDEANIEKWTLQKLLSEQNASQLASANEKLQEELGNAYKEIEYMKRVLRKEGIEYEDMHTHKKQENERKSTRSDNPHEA
Sequence = CCTAACTACTATAAGCTTGTGATATAGCTTCGTACA; result = 525 a.u.
Sequence = CCTAACTACTATATACACGATGAATAGCTTCGTACA; result = 562 a.u.
Sequence = GAACTTTCAGCTGGTCACGCTATGCCTAAAGAATAG; result = 1630 a.u.
Sequence = GAAAGACATACTCTGTTCGTGATGTTTCTGCATTAG; result = 539 a.u.
Sequence = CTAGCAGCTGGCTCATTCGTGCTGTACTCTCTTTTC; result = 537 a.u.
Sequence = CTACAAATAATATGAGTCGTGACGACATCAAATTTC; result = 683 a.u.
Sequence = GAAACTTTGACCTGTGACATCACGTTGGCTTGGTAG; result = 1220 a.u.
Sequence = GAAGGGGCTTGTGGTCACCTGTCATAGGATGCCTAG; result = 2170 a.u.
Sequence = CTAGCAGGCACAGGTCACGAACTGCGGTGCGGATTC; result = 788 a.u.
Sequence = GAAGTGCGGAAATGCATCACCGCCTAGCGACTCTAG; result = 486 a.u.

Study 2 — technique: RNA Bind-n-Seq; form: RNA; medium: in vitro; concentration: 365 nM; reference: no-protein control; direction: higher = stronger binding; measurement: RBNS enrichment (R)
Target: RNA binding protein fox-1 homolog 2, RRM domain, GST-SBP tag (RBFOX2, Homo sapiens, UniProt O43251-10, residues 100-194)
Notes: natural RNA segment, single round, ends assumed
Constant ends, left off below: GGGAGUUCUACAGUCCGACGAUC … UGGAAUUCUCGGGUGCCAA
Construct (chain): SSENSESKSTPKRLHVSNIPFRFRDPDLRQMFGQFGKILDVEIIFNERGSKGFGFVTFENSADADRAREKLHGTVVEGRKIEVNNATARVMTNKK
Sequence = AGUUUAACAUCUUUUAAAAUUUGAACACUACGUAGUAGGGUGACUAAUUUUUGAAGAAUAUCACAAAGUUGCUAUUAUGGUAAACUAGUUUCACACUUCAGCAAACAUAA; result = 0.279
Sequence = UCUAGCAGUUCUUUUUGUGAUGUCUCUUUGUUAAUCUGAGUCUAUCUAUUUUCGGCAAUAAGGUAAGGACGACAGUGUUUUGAGUGUCCUCCUUUUCUAUAAGUGCUUUU; result = 1.41
Sequence = UGGCAAGAUGUUUUUUCGGCCCUUCAUCACUGAUUGCAUUUUCCAUACAGAAGAGACAUCAGGGGUGUGGGUAAAAUUGUGUGUGUGCCUCCUUGACGUGGACAAUCACU; result = 0.198
Sequence = GGCUAGCCAAGGGGCCACUUCUUGGUAGGAAGGUAUGACAGAGUACUUUCCCAAGUUCCUCACGAGGGUUGCAUAUGCUUUAGAGGGUCCACAAUGCUUUUGUUGUCUUG; result = 0.641
Sequence = AGAUGCAGUUUGGAGAGUCAGAUCUUUCUCCUUGAAUAUCUUUCGAUAAACAACAAGGUGGUGUGAUCUUAAUAUAUUUGAAAAAAACUUCAUUCUCGUGAGUCAUUUAA; result = 0.316
Sequence = CACGCAUCAACACAUCCUCCCCAAAUCUCAAGCAAUAGACAGAAAUCUCAGUAGACUAAACUCCAGCCCAUUUUUUAAAUGUGAGCAUGUGCUUUGCCAUCCAGUGUGGG; result = 2.67

Study 3 — technique: protein-binding microarray; form: double-stranded DNA, one strand shown; medium: in vitro; concentration: 250 nM; notes: 60-bp whole probe; with: salmon DNA 0.4 mg/ml; reference: random background probes; direction: higher = stronger binding; measurement: log fluorescence; constant ends, left off below: GCCTAGCAC … GTCTTGATTCGCTTGACGCTGCTG
Target: Interferon regulatory factor 5, full length, phosphomimetic (IRF5, Homo sapiens, UniProt Q13568-2, residues 1-514, K96S/S451D/S453D/S456D/S462D)
Sequence = TGAGATTTCAGTTTCGATTAGTGCTAG; result = 10.1 z-score
Sequence = CCTTGTCCCCTCAGGTATGGGTGCTAG; result = -0.303 z-score
Sequence = GCCGAACTGGGGACTGGAGACGTGCTA; result = -0.631 z-score
Sequence = TTAGGTCTCGGTACCGGTTAGTGCTAG; result = 0.487 z-score
Sequence = GACGGTTCCGACTATCGGGACGTGCTA; result = 1.57 z-score
Sequence = TTAGAGCTGAGTCTCGATTAGTGCTAG; result = 0.448 z-score
Sequence = TCAAGTCTCAATATTAGACTGTGCTAG; result = 0.286 z-score

Further values, each from its own experiment
Substance = PhoQ, residues 284 288 289 292 302 303 SNSSNI; target = PhoP, residues 12 14 15 18 19 NMSFL (Escherichia coli, UniProt P23836); test = Sort-seq, measured: YFP reporter; test system = E. coli; conditions = PhoQ-PhoP variant library, with: 10 µM Mg2+; how to read = reference: high Mg2+ state, higher = stronger signaling; measurement = fold induction; result = 12.4
